Measured values gathered from unrelated publications.
Numbered parts are unrelated; each lists some results of a single study. Positions count from the first letter of the parent shown.

Sample 1 — technique: protein binding microarray; form: double-stranded DNA, one strand shown; matrix: in vitro; concentration: not given; baseline: not given; direction: higher = stronger binding
Target: Histone acetyltransferase KAT6A, winged helix 1, GST fusion (KAT6A, Homo sapiens, UniProt Q92794, residues 1-85)
Notes: 8-mer, flanks averaged, mean of 2 arrays, mostly near background
Construct (chain): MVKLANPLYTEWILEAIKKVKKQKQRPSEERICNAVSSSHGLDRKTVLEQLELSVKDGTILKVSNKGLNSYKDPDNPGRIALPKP
| Sequence | E-score |
| --- | --- |
| GCCAACTA | -0.12 |
| AGAGCATA | -0.142 |
| ACGATCCC | 0.0259 |
| AGACGTAG | -0.207 |
| CACCATTA | -0.113 |
| ATCTCAGG | -0.115 |
| AACCGATC | 0.0575 |
| CCGTTTTA | 0.167 |
| CCCTGTCG | 0.0563 |
| AGAAGGCA | -0.123 |
| ATAATGTA | 0.0111 |
| TCTACACA | -0.254 |
| CATTAAGA | -0.164 |
| AGGGATCA | -0.215 |
| CTATGTAC | -0.118 |
| ATTCTCAC | -0.164 |
| AACTTCAT | -0.188 |
| CGAACCAA | -0.116 |
| GCAGGCCA | -0.0214 |
| GGTAACCA | 0.0236 |
| TCCCACGA | -0.0708 |
| AAGTGGTC | -0.124 |
| CCTACCGA | -0.0243 |
| AGGGCCCG | 0.233 |

Sample 2 — technique: DHFR PCA, deep sequencing; matrix: yeast; together with: (+)-ABA 200 µM; baseline: wild-type fitted maximum; direction: higher = stronger binding
Target: ABI1, truncated, D143A, DHFR fusion (Arabidopsis thaliana)
Notes: methotrexate growth selection, single substitutions
Starting sequence: PYL1, truncated, DHFR fusion (Arabidopsis thaliana); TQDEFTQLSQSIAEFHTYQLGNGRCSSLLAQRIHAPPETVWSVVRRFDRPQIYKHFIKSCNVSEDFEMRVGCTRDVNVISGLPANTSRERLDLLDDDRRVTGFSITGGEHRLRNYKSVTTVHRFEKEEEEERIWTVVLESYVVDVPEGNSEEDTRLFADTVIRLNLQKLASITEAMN
| Variant | relative binding score [%] |
| --- | --- |
| N61H | 95.5 |
| R123F | 79.3 |
| T120F | -11.8 |
| Y53E | 13.8 |
| I162M | 31.2 |
| V143F | 18.1 |
| R132P | 114 |
| L29P | -11.1 |
| T39I | 102 |
| D96T | 38.8 |
| E151R | 92.2 |
| L94Q | 58 |
| F47A | -3.14 |
| F66V | 97.2 |
| F47H | -20 |
| R45A | 66 |

Sample 3 — technique: protein-binding microarray; form: double-stranded DNA, one strand shown; matrix: in vitro; concentration: not given; direction: higher = stronger binding
Target: Myc proto-oncogene protein, bHLH-zipper, MAX partner unstated (MYC, Homo sapiens, UniProt P01106, residues 368-449)
Sequence of UniProt P01106 (368-449, looked up): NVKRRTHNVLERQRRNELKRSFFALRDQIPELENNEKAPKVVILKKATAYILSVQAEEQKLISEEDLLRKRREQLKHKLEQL
Notes: k-mer, scored over probes, only values ≥0.25
| Sequence | E-score |
| --- | --- |
| ACGCGTGA | 0.39 |
| ACGCGGCG | 0.366 |
| CATGCCTA | 0.362 |
| ACGCTTCA | 0.273 |
| ATGCGGTG | 0.309 |
| GCGGGCAC | 0.277 |
| ACGTTGTC | 0.368 |
| CACGATAC | 0.286 |
| GGCACGAC | 0.274 |
| CGTGACGA | 0.263 |
| GCGACCGC | 0.275 |
| CGCCGCAC | 0.347 |
| CACGTGCA | 0.496 |
| ATAACATG | 0.28 |
| GCGTGAAC | 0.256 |
| CGCCCCAC | 0.366 |
| ACATGATG | 0.285 |
| AACGTGCT | 0.417 |
| AGCATGCC | 0.378 |
| GTGGGAAC | 0.296 |
| ATGAGGCG | 0.297 |

Sample 4 — technique: universal PBM; form: double-stranded DNA, one strand shown; matrix: in vitro; concentration: 600 nM; direction: higher = stronger binding
Target: Sal-like protein 4, full length isoform A (SALL4, Homo sapiens, UniProt Q9UJQ4, residues 1-1053)
Sequence of UniProt Q9UJQ4 (whole entry, looked up): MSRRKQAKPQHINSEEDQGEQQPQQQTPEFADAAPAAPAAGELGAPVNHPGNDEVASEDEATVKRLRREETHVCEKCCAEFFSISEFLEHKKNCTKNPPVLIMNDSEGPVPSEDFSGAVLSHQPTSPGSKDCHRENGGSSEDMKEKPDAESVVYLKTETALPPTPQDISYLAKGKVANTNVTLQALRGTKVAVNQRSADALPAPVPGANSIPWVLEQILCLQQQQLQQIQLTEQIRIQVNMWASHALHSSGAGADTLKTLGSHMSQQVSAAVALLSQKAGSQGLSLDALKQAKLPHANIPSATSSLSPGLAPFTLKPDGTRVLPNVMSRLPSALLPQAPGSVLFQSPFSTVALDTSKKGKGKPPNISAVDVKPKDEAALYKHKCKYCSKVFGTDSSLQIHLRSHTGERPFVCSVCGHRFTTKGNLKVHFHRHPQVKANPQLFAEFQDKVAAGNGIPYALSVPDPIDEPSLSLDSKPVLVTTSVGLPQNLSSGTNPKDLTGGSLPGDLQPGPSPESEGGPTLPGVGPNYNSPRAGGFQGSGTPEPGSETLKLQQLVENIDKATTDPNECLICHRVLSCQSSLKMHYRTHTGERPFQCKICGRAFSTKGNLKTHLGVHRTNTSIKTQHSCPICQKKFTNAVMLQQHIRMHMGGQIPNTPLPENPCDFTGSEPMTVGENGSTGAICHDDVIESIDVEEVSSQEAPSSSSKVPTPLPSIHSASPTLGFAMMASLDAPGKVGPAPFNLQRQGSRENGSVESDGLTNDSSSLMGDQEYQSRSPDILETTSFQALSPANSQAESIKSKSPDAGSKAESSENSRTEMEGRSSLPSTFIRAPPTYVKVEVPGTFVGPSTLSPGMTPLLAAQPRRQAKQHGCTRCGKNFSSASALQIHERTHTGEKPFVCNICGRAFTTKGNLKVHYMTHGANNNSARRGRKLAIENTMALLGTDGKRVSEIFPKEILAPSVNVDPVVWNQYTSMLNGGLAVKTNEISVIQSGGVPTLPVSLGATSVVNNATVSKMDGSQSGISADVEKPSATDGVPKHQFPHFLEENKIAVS
Notes: 8-mer, flanks averaged, mean of replicates
| Sequence | E-score |
| --- | --- |
| CCTGACCA | 0.0675 |
| CAACTGAA | 0.036 |
| GTCCAGAC | -0.267 |
| TCTGAACA | 0.0943 |
| ATAGTGAA | 0.258 |
| AAAAAACA | 0.294 |
| CTGGTAAC | -0.0662 |
| ACAAGCAC | -0.099 |
| CTTACCAC | -0.035 |
| CAGAGCAC | -0.163 |
| ATCGGATC | -0.0175 |
| AATTAGCC | -0.0282 |
| AAAACTCA | 0.217 |
| ATTACGGG | -0.0598 |
| AAACGATC | 0.122 |
| TCAGGGGA | -0.117 |
| AATTTAAT | 0.307 |
| TGACCGCA | -0.18 |
| CATCTAAC | 0.0735 |
| CACATTTC | 0.163 |
| GGAGCTTA | -0.0334 |
| AGGCGCAA | 4e-05 |
| ATTAAGTG | 0.232 |
| AGTGCGAA | -0.156 |
| CAGCGAGG | -0.158 |

Sample 5 — technique: RNA Bind-n-Seq; form: RNA; matrix: in vitro; concentration: not given; baseline: input RNA pool; direction: higher = stronger binding
Target: RING finger protein unkempt homolog, zinc fingers 1-6, GST-SBP tag (UNK, Homo sapiens, UniProt Q9C0B0, residues 30-357)
Sequence of UniProt Q9C0B0 (30-357, looked up): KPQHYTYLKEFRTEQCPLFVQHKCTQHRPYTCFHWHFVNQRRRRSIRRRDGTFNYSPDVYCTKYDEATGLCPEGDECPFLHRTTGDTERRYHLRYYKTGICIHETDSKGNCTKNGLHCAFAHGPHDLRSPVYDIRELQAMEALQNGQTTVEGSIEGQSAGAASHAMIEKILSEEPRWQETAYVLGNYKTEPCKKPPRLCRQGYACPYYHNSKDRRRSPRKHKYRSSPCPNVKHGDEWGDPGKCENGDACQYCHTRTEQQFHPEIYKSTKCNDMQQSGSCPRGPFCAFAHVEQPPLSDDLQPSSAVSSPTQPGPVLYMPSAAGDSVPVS
Notes: RNA with constant flanks, human and mouse sites, ends assumed
All sequences stand within: GGGAGUUCUACAGUCCGACGAUC … CAACAGAGGAUUGAGCAUCA
| Sequence | bound/input enrichment [ratio] |
| --- | --- |
| GCCUACAUCCUCUAUAGAAAGAAGAUUUUUUGGAAAAUCUGAUGGCUCCCACUGAGAUGUGCUGCUGGAAGACUCUAGUAGGCCUGCAGGGAGGACUGAAGCAGCCUUUGUUAAAGGGAA | 0.334 |
| GCAUGCUUCCAGAAGAGUGGUGCAUCAGUGGUUGCUAUUCGAAAAUACAUCAUCCAUAAGUAUCCUUCUCUGGAGCUGGAGAGAAGGGGUUAUCUCCUUAAACAAGCACUGAAAAGAGAA | 0.199 |
| UCAUUAAAUUAGGAUAUUUUUAUUAUUUUUAAAGAAAAUGUAUAACUCCAUGCUGUCAGUCAUCCUCAGCAACUCAGGCACUGGCUGCCUCUCCACGUCAGGGCAGGCCCCACUUCCCCU | 6.78 |
| UCUUUUUGAGGGUCCUUUUGUUUUCCUUUGCUUUUCUUUUGGCCUUCCCUCUGUCUUUCACUUAGACCAGCUAUUUGAAAGGGCAGACGAUGCUAAAGGUGUACUGUGCAGCUUGUUUAG | 0.155 |
| GUGCCUGAGGUGAAAAAAGUUUGUAAGUUAUUGAAUUAUGGUGUUCAUUAGAACAGCUACUAGCUGAUUCCCCUAUUUUAACAAACUGACAAGAGCACAUCCAUAAAAUGAAAACCUGUU | 0.372 |
| UAGACUUCAACAAGAAAAUCCUUCAUACAGCCUGGCAUCCCAAGGAAAACAUCAUUGCUGUAGCAACUACAAACAAUCUGUAUAUAUUUCAAGACAAAGUGAAUUAGGCUGGCAUUCUCU | 0.538 |
| GCAUCGAGGGUUCGCAAAAGGCCACACUGGGGUUGUGUGUGUUUCCUUUGGUAUAUUCUGGAAACAUGGCUACACACACCCUUGCAUCUUCUGCUACAGACUGCUUUUCGAAGCUGUGUA | 0.165 |
| GGUUUUGACCGCCACAUUACCAUUUUUUCACCCGAGGGUCGGCUCUACCAAGUAGAAUAUGCUUUUAAGGCUAUUAACCAGGGUGGCCUUACAUCAGUAGCUGUCAGAGGGAAAGACUGU | 0.398 |
| GAGUCUAACAACAUUUUCAUUUCCGAAAGGCCAACAGAUGUUCUCCAGACAGUCAAGUUAUUAGAUCUUUCCUCUAAUCAAUUAAUUGAUGAAAAUCAGCUGUAUCUGAUAGCCCACCUG | 0.294 |
| GAUAUUCUAAGAUCACAGUGGUCGCCUGCUUUAACAAUUUCUAAAGUUCUUUUAUCCAUUUGUUCACUGCUAUGUGAUCCAAACCCAGAUGACCCCCUAGUGCCAGAGAUUGCACGGAUC | 0.439 |
| GGGAACCAGGUUCUGUGAGGCAUUCUACCUCACCAGCAAGCUCAGAAUACUCUUGGAAGUCAGUUGAGAAAUACAAAAAAUACGCUCACUCUGGAUCACGUGAUUUCAGUAGACAUGAGC | 0.225 |

Sample 6 — technique: RNA Bind-n-Seq; form: RNA; matrix: in vitro; concentration: 365 nM; baseline: no-protein control; direction: higher = stronger binding
Target: RNA binding protein fox-1 homolog 2, RRM domain, GST-SBP tag (RBFOX2, Homo sapiens, UniProt O43251-10, residues 100-194)
Notes: natural RNA segment, single round, ends assumed
All sequences stand within: GGGAGUUCUACAGUCCGACGAUC … UGGAAUUCUCGGGUGCCAA
Construct (chain): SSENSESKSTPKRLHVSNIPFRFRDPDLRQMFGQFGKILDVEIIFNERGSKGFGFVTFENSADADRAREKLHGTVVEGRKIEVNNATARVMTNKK
| Sequence | RBNS enrichment (R) |
| --- | --- |
| CUCUACUCACUGAGCUAGGAUUAGGGAGGGUUAUUGCCCCAACCAUUGCAAUGGGAGGUGGAGGGACAGGCUCAGCCUCCUCAUUGUCUAAAUGAGGCCUAAAUGUGUGA | 0.553 |
| CCUGGGACCCGCCUGAUAGGAGAGAACUGACUUCUACAAGUUGUCCUCUGACCCAAUAGAUUUACAAACAAACAAACAAAAGAUUAAAAAUAAGAAAAGAGGACUUAAUU | 0.627 |
| UCCUCCGCUAGUCCCUGUGUCCUUCCUGGGCACGGGGUGAGAGCUGUAGAAGCGGUGGGGGCACAGCUAGCCACAGUUUUUCCUUUUCCCUACCUUAGUCUGACAGAGGA | 0.332 |
| AGGGGAAGGCUACAUUUCUAUGGGUAUAGAAAUGGGAAUAUUUGCGAGCCUAUCUCAGAUGUACAUUAAUAGACCUCACUGCCUUCCGGGUGAAGGUGUGUUGUCCUACA | 0.784 |
| ACACACACUUAUGGCACCAGCCUGGACUCCAGAAAAAGGGUGUCCAGGUAUUGUGUGUAUGCAUUUAGUUGUGCACACACAAAUAUGCUCCUAUACUGGCAUUAGGCGUC | 0.458 |
| CCAUUGUUACAAGUUUAUAAUGUAUUUUUCUAUCUUGUUUUAUAUGUAUGUUAUAUAACAUUCAAAAGAAUUUUUUUCUUGAUUGAGAAAAGGAUACAAAAUGCAAAAUC | 1.15 |
| UAGGAUGUGGUGCAGCCCUCUCUACGCUCUUCUAUUUUUGGUAUAUUUCCUAUCUAACCUUCAAAUAGCUUCCAAUUCUUUUUUUCUUGGACUGGCUUCAUUCUGAAUUU | 0.858 |
| GAGCGCCACAUGUUCCCUAUAAGGCCUGAAGCCCACAGCCCUGAAACAGUGGGGCCAGCUGCCCUGGUAUUCCAGAUACCCUGAAGCGUCUCCGUGCAGAUCUUGAAGAG | 0.196 |
| CAGUAGCUGGUGUGACUGAACAGCAAUGGGGUGGUUGGUACUCAAUGCCUAGGUGAGCCAGUGGUUCUCAAAGUAGGGUUCCCCAGGCACUGUCAGAAAUACAGUCAUAC | 1.69 |
| CACAUGCGGCUCAAGUCACUCAGAGGCUGUUGCAUUUCAGGGCUAUGUUGGUCCUUUGUUUACCUCCUAAACCACAGCUGUUUGUGUUUCACAUAUGUUGUGAAUUUUCC | 0.273 |
| UUGCCCAGCUCAGCAUCAGCUAACCACAACCCUGGAAGAGGCGGCCUAAGGAGAUUCCACACAUGCGUAUCUCUGUUGCUUCUAUUGGCCUAAACCCACUACUGCCAAAG | 0.811 |
| GUCUUCGUGCUGUGUCUCAUGGGUUUCCAUAGUGAUAAAGACAAGGAAACGCUGCAGGGGCCACAGGCACAGGCUGAUAUUUAAAGAUCUUUGCUUGCAGCCCUCCGUCC | 0.286 |

A few entries again (sample 2):
| Variant | relative binding score [%] |
| --- | --- |
| I162M | 31.2 |
| V143F | 18.1 |
| R132P | 114 |
| L29P | -11.1 |
| T39I | 102 |
| D96T | 38.8 |
| E151R | 92.2 |
| L94Q | 58 |
| F47A | -3.14 |
| F66V | 97.2 |
